Assay results pooled from the literature.
Each numbered part is a random draw from the data of one study; scales do not carry over between parts.

Series 1
Target: Sal-like protein 4, full length isoform A (SALL4, Homo sapiens, UniProt Q9UJQ4, residues 1-1053)
Sequence of UniProt Q9UJQ4 (whole entry, looked up): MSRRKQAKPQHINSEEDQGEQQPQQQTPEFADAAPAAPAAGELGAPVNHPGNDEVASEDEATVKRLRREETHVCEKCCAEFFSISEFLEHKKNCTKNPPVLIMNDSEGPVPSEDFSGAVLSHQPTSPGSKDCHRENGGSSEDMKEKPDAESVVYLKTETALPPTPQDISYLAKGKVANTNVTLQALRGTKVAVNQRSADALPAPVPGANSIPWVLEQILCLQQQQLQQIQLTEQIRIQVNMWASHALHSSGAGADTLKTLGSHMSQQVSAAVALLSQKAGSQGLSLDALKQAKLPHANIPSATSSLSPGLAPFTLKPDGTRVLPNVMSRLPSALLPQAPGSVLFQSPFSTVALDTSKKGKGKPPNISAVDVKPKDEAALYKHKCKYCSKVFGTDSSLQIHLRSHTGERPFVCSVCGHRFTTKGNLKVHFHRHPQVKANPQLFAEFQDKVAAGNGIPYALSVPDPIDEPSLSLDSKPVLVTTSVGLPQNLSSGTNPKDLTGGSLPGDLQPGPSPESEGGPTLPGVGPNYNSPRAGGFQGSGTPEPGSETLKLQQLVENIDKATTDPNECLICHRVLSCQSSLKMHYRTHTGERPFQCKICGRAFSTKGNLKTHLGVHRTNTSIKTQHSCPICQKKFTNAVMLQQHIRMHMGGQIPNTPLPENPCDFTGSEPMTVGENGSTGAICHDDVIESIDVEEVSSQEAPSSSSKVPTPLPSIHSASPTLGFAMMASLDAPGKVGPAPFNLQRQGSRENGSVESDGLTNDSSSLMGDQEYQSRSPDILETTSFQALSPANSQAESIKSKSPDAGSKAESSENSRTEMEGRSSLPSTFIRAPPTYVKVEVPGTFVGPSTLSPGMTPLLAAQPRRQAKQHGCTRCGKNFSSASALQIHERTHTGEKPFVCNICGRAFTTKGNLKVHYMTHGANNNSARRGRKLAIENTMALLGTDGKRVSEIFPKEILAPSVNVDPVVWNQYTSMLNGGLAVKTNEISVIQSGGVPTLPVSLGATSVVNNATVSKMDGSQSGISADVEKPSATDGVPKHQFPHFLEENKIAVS
Technique: universal PBM
Form: double-stranded DNA, one strand shown
Matrix: in vitro
Concentration: 600 nM
Setting: 8-mer, flanks averaged, mean of replicates
Reading: higher = stronger binding
Measurement: E-score
GCCGCCGC: -0.359
AGGACTGC: -0.353
AGTGCAGA: -0.0521
ACAGATTA: 0.0246
CACCCGGG: -0.351
ACGCCCGC: -0.352
ACCGCAAA: -0.00634
CAGTCGCG: -0.372
GATGTTCC: -0.156
ATTAGTTA: 0.329
GGGCCCAA: -0.221
ACACTACA: 0.193
ACTGCTAT: 0.0937
AACTCTTA: 0.164
GAAGTGCC: -0.171
CGAATAAA: 0.193
AGAAAGCT: 0.0113

Series 2
Target: RNA binding protein fox-1 homolog 2, RRM domain, GST-SBP tag (RBFOX2, Homo sapiens, UniProt O43251-10, residues 100-194)
Technique: RNA Bind-n-Seq
Form: RNA
Matrix: in vitro
Concentration: 365 nM
Setting: natural RNA segment, single round, ends assumed
Reference: no-protein control
Reading: higher = stronger binding
Measurement: RBNS enrichment (R)
All sequences stand within: GGGAGUUCUACAGUCCGACGAUC … UGGAAUUCUCGGGUGCCAA
Target sequence (chain): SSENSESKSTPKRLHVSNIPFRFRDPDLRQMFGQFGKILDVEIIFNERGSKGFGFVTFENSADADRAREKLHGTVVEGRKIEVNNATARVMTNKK
UUAAAGCUAUUUUAAAUGUGUUUUUAUUUGUAAGACAUUACUUAUUAAGAAAUUGGUUAUUAUGCUUACUGUUCUAAUCUGGUGGUAAAGGUAUUCUUAAGAAUUUGCAG: 0.965
AGUCACGUGGGGGAAGACCUCAGCCACAGCUGUAAGCAGCUCUCUGCCAGCCACAUGGCCGGGGACCGAAAAACUCCCGUGGGAGAUUUUGGCCCCAACCCACACAGGCC: 0.206
CUGUUCUCUGUGGCUGUGGACAGUCGUUGCCAGCUGCAUCUGUUGCCCUCACGGGGGAGUGUUCCUGUGUGGCUCCUGCUCCUGCUGUGUGUCGGGCUUAUUAUUGUGAC: 0.398
CCUCAGAGUGCCCUGUAUCCUACAUUUGUACAUGUAAGUAAGAGUGGCUUCCUGUCUCUCAGGUGCAUGCAGACACAGGGAAAGCAUCUUUGAGGGCAUUUAACUACAGG: 3.59
AAAGCAAAUUAAAAAAAAAUACAUUAGGAAAAGUUACACAAAUGAAGUGUACGCCUAUUAUAUUCCCAAGGCAUUUUUGUGGGGAGGAACAGUGCUGCUUGUUGGCCUUU: 0.696
CAAGUGAGCAGAUGGGACAAGUUAGUCUUUUCUCCCUAGAAACAAAGGGGAUGCCCAGUGGUUUCCCUUUGCUUCCCAACCUAAAAUUUCAAGUUUAAUAAAAUAGCAAU: 0.285
CCCGCCGCAGCCUGCCAUCCCAUUUGGAUGUAUCAAUGCCACUGAGUUGUCUGUCCGUCCGUGGAGCCAGUCCUAGCCACAUUAUUGACAGUCUUGCAUUUUGUUUUGUC: 1.8
CCUUGUUCUGAGCCCUGACAUGUGCUUGGGCACUGGUGGGCCUGGGCUUCUGAGGUGGCCUCCUGCCCUGAUCAGGGACCCUCCCCGCUUUCCUGGGCCUCUCAGUUGAA: 0.369
AUCCCUCAGGGCAUAGAGUCCUUGCCACCACCUGUCCCCAGAUGCCAGUGUGUGGCACCCCUCCCCCCCCAACUUCCAUUCCUGAUCUUAGGCAAGUUCUUGGAGUCUGC: 0.396
UUUAAGUCCUUCCUUUGAUAAUACUUCAAAACAUACACAGCUUUGCUUACUGAAUUAUUUUUGCAAAUAAUACAAGGAGGGGAAACUAACUUGCUACUAGUGUUGUUAAU: 0.245
CAGUCCAGAAGGGUUUCUGCAGACUGUGUUGGGUGAGACGCAGAAAGGAUGAAAUCUCAGAACACAUGUCAGCUGCUUCUCAGGAAAUCUUUUCUUUGGACAAUUCACUU: 0.557
CUCCACCAAGACCAUAUAGACCAUCUGGCGGGCUCAAGCCGGGGCUUUUUCCUCUCCAGUCCAAAACACCUCACUGUUCCUGUCUACCUCGGGGUCAGGGCCCGGCAUGG: 0.52

Series 3
Target: Histone acetyltransferase KAT6A, both winged helices, GST fusion (KAT6A, Homo sapiens, UniProt Q92794, residues 1-181)
Technique: protein binding microarray
Form: double-stranded DNA, one strand shown
Matrix: in vitro
Concentration: not given
Setting: 8-mer, flanks averaged, mean of 2 arrays, mostly near background
Reference: not given
Reading: higher = stronger binding
Measurement: E-score
Target sequence (chain): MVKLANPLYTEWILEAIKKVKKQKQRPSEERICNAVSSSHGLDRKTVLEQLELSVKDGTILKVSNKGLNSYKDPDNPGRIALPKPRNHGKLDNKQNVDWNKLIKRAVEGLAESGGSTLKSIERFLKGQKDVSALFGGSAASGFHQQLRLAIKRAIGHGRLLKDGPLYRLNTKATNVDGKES
ATGCGCAT: 0.315
GGTTATAC: 0.0165
ATATTCTC: -0.187
TGCTTCAA: -0.108
CAGTCCCC: -0.0507
GACCTAGA: 0.0182
GACCGCTC: 0.196
ATACCTCA: -0.267
CGTTCAAC: 0.0625
AACTGAAA: 0.00662
ACGCTCAG: 0.098
TGGCCGAA: 0.0782
AGTTTGAT: -0.0452
CGAAGGGC: 0.082
TCCTTGAA: -0.0524
CAATAGAG: -0.166
ACTCTCAA: -0.254
GTGGCGCA: 0.194
CGTGCACA: -0.0947
AGTTTGTG: -0.0484
GGAACCGA: 0.102
AAGGGTTG: -0.145
CAATCAAG: 0.00227

Series 4
Target: Protein C-ets-1 (ETS1, Homo sapiens, UniProt P14921, residues 1-441, full length assumed)
Technique: protein-binding microarray
Form: double-stranded DNA, one strand shown
Matrix: in vitro
Concentration: not given
Setting: k-mer, scored over probes, only values ≥0.25
Reading: higher = stronger binding
Measurement: E-score
Construct (chain): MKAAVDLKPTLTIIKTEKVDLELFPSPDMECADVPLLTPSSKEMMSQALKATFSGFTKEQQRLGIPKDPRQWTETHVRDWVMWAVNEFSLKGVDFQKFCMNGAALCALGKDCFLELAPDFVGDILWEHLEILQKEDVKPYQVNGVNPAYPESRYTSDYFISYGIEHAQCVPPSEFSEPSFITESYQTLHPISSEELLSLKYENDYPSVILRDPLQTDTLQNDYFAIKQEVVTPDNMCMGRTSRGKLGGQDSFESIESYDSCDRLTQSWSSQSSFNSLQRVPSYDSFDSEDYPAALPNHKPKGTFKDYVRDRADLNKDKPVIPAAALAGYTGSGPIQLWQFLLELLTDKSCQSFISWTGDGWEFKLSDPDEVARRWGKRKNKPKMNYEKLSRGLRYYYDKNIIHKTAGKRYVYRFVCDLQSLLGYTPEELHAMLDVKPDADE
AAGCATCC: 0.398
AGACGGAA: 0.367
ATCCGGGA: 0.434
CTCCGGTA: 0.334
TATCCGGA: 0.46
CCCTTTCC: 0.317
GCACAGGA: 0.381
AAAATCCG: 0.333
GGGGGAAA: 0.358
CGGGGGAA: 0.351
AGCCCGGA: 0.374
CCGGCGCC: 0.257
CGGCGGAC: 0.28
GGACGGAA: 0.438
CCCCGCCA: 0.253
GGACGCCC: 0.276
GATGGGAA: 0.294
GACGGGAA: 0.334
AAAGGGAT: 0.308
CGTTTCCA: 0.256
ATGTTCCG: 0.322
GCATCCAC: 0.274
GGTGGAAA: 0.26
ACCCCCGG: 0.258
GGAAACAC: 0.391

Series 5
Target: Phosphate system positive regulatory protein PHO4, full length, GST-tagged (PHO4, Saccharomyces cerevisiae, UniProt P07270, residues 1-312)
Technique: competition protein-binding microarray
Form: double-stranded DNA, one strand shown
Matrix: in vitro
Concentration: 2 µM
Setting: whole 60-bp probe, lowest competitor level
With: Cbf1 competitor, 0.05 µM
Reading: higher = stronger binding
Measurement: fluorescence intensity
All sequences stand within: … GTCTTGATTCGCTTGACGCTGCTG
Construct (chain): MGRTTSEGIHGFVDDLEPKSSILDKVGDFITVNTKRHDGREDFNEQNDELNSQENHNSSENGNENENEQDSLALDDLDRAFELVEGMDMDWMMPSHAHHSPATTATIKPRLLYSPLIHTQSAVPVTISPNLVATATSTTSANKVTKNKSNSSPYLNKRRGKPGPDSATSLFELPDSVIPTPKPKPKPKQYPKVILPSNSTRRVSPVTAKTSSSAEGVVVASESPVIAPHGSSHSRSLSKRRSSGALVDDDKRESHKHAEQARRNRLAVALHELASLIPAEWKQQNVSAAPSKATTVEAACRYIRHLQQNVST
ACCATCACAATTCGTCACGTGCAAATTAGTCCAGTC: 15300 a.u.
AGGACCCTCTCTCAACATGTGGGTAATGCGAATCAA: 11800 a.u.
ATGGATATATATGGACACGGGACATTATAACAACTT: 7630 a.u.
AAATTACTAAGTTGAGTCGTGGGTGACGCCGTATGA: 8190 a.u.
AAGAATGTCATATTCTTCGTGACGGATGGGATGGGA: 3970 a.u.
TCTTTCTTTCACCATCACGTCTTGGTCTGTAACAAG: 4950 a.u.
CGGGCCGTTCCGCGGGATGTGACGCTTCGCAAGTTA: 3290 a.u.
TGCGCAACAACTTGGTATGTGGGTGTATGTCTAGAA: 5790 a.u.
TTGACGTTGCATATCAACGTGCCAGATCCCGGAATA: 12000 a.u.
CCTGCTGAGCTCAGCCATGCGTCTTACTGCCTGGTG: 5150 a.u.
TGTTAATATACCGACATCGTGTTTTGGGGAATGGGT: 12600 a.u.
TTGTTCGAGTCTTTGCACGATCAAGCCTTTACTCTG: 4620 a.u.
CAAGGATACTAGAACCATGTGAGAATCGGTACCGTT: 5290 a.u.
AGGGTGTTGATGGTGCTCGTGTTGAATACATTTGTG: 8630 a.u.
CATTCTGCCACTGACCACGTGGTAACGCCAACTACG: 18500 a.u.
TACCACCACCAAGAGAATGTGTGAGCTGGAAACCTT: 4960 a.u.
GTCTTGTCTCATTGTACAGTGGGTGTCCCCACTTCA: 4770 a.u.
GTACGTTATTGCTGGCACGATCCTGTCGCTACGGCC: 9560 a.u.
GTTTCGACTTGCCACAACGTGCTTTCGGTTTCTTGT: 11900 a.u.
CCCAAGAACAGGGCCCTCGTGGTCGTCAAATCTGTG: 10400 a.u.
CGTCCGAGAGCCCGCGACCTGATCCGACTTCAGGGT: 2870 a.u.
TGTTTCAAGTCTTCCGACATGACAGCGTAGTTATGG: 3800 a.u.
CGTCCTAGCGATTGATGTGTGGGTGCCATGAGGAAG: 8110 a.u.
AGGAAAACAAATGAATGCGTGCCGAAAGCGGAAAAT: 11200 a.u.
CGGGGTTAAGTTTGAACGGTGGGTGGCTTGCAGCAG: 4800 a.u.

For quick reference, copied from above (series 3):
CGTTCAAC: 0.0625
AACTGAAA: 0.00662
ACGCTCAG: 0.098
TGGCCGAA: 0.0782
AGTTTGAT: -0.0452
CGAAGGGC: 0.082
TCCTTGAA: -0.0524
CAATAGAG: -0.166
ACTCTCAA: -0.254
GTGGCGCA: 0.194
